{"data": "Measurements of several laboratories", "cell line": "HepG2", "note": "Each line is one published result; not all experiments were run side by side. “And” joins repeats or separate records; there may be more than shown. ± gives the spread as reported."}
{"Compound": "NC(=O)c1ccc(-c2ccccc2Cl)c2c3c([nH]c12)CCC(N)C3 (centres unmarked)", "test": "cell growth or viability", "quantity": "IC50", "value": "0.02 µM"}
{"Compound": "CC1(C)CC[C@@]2(CO)C(=C3C=C[C@@H]4[C@@]5(C)CC[C@H](O)[C@@](C)(CO)[C@@H]5CC[C@@]4(C)[C@]3(C)C[C@@H]2O)C1", "test": "flow cytometry", "setting": "concentration not given, high concentration, unit not given, added: ethanol", "how to read": "reference: control", "quantity": "ROS level", "value": "1.23 and 1.03 and 1.5"}
{"Compound": "CCn1c(-c2ccccc2)cs/c1=N/N=C(\\C)c1c(O)c2ccccc2oc1=O", "test": "cell growth, MTT", "how to read": "reference: IC50 BJ-1 over HepG2", "quantity": "selectivity index", "value": "> 1.15"}
{"Compound": "Cc1ccnc(-c2cc(C)ccn2)c1.[Co+2].[O-]c1c(I)cc(I)c2cccnc12.[O-]c1c(I)cc(I)c2cccnc12", "test": "cell growth or viability, MTT", "setting": "48 h", "quantity": "IC50", "value": "46.3 µM"}
{"Compound": "CCOC(=O)c1ccc(NC(=O)C(C#N)=C2C(=O)c3ccccc3C2=O)cc1", "test": "cell growth or viability, MTT", "setting": "6.25 µM, 24 h", "quantity": "viability", "value": "78.6%"}
{"Compound": "C/C(=N\\N=c1/[nH]c(-c2ccccc2)cs1)c1c(O)c2ccccc2oc1=O", "test": "cell growth, MTT", "how to read": "reference: IC50 BJ-1 over HepG2", "quantity": "selectivity index", "value": "> 2.1"}
{"Compound": "O=C1C(Cl)=C(Cl)C(=O)c2c(O)ccc(O)c21", "test": "MTT", "how to read": "reference: IC50 MRC-5 over IC50 HepG2", "quantity": "selectivity index", "value": 1.29}
{"Compound": "COc1ccc(NC(=O)c2c(Nc3ccccc3)sc(C(=O)N/N=C/c3ccc(OC)c(OC)c3)c2NC(C)=O)cc1", "test": "cell growth or viability, SRB", "setting": "10 nM, 48 h", "quantity": "viability", "value": "86.4%"}
{"Compound": "C/C(=N\\N=C1/NC(=O)CS1)c1c(O)c2ccccc2oc1=O", "test": "cell growth, MTT", "how to read": "reference: IC50 BJ-1 over HepG2", "quantity": "selectivity index", "value": "> 1.02"}
{"Compound": "Cc1c(C)c2cccnc2c2ncccc12", "test": "cell growth or viability, MTT", "setting": "48 h", "quantity": "IC50", "value": "> 50 µM"}
{"Compound": "CC(C)(C)NC(=O)CC(NC(=O)CCc1ccccc1)C(=O)NCCNC(=O)c1cccc(-c2ccccc2)c1 (centres unmarked)", "test": "cytotoxicity", "quantity": "EC50", "value": "3.67 µM"}
{"Compound": "NC(=O)c1cn([C@@H]2O[C@H](CO)[C@@H](O)[C@H]2O)c2ncnc(N)c2c1=O", "test": "cell growth or viability", "quantity": "IC50", "value": "1.5 µM"}
{"Compound": "CCOC(=O)c1ccc(-n2c(N)c(C#N)c(SC)c(C#N)c2=O)cc1", "test": "cell growth or viability, MTT", "setting": "25 µM, 24 h", "quantity": "viability", "value": "56.1%"}
{"Compound": "COc1cccc2c1cc1c3c(cc4c(c32)OCO4)[C@@H]2c3c4c5c(cc6c(c5c5cccc(OC)c35)OCO6)CCN4[C@@H]2N1C (racemic)", "test": "cytotoxicity, MTT", "setting": "50 µg/mL, 48 h", "quantity": "inhibition", "value": "< 50%"}
{"Compound": "Cc1ccc2c(Cl)cc(Cl)c([O-])c2n1.Cc1ccc2c(Cl)cc(Cl)c([O-])c2n1.[Co+2].c1ccc(-c2ccccn2)nc1", "test": "cell growth or viability, MTT", "setting": "48 h", "quantity": "IC50", "value": "8.36 µM"}
{"Compound": "CCN(C(=O)c1cc(F)ccc1Oc1nncnc1N1CCC2(C1)CN([C@H](CCCN(C)CCOC)C(C)C)C2)C(C)C", "test": "cell growth or viability", "setting": "7 days", "quantity": "GI50", "value": "> 10 µM"}
{"Compound": "CC(CCC(=O)[O][Pt]([NH2])([NH2])([OH])([Cl])[Cl])C1CCC2C3CCC4CC(O)CCC4(C)C3CCC12C (centres unmarked)", "test": "cell viability, MTT", "setting": "72 h", "quantity": "IC50", "value": "6.8 ± 0.3 µM"}
{"Compound": "CCC(=[NH+][Pt-2]1([OH])([OH])([Cl])[NH2+]CCC[NH2+]1)N(C)CCNc1c2ccccc2[nH+]c2ccccc12.O=[N+]([O-])[O-].O=[N+]([O-])[O-]", "setting": "72 h, added: pyrimethamine 1 µM", "how to read": "reference: with over without pyrimethamine", "quantity": "IC50 fold shift", "value": "130 fold"}
{"Compound": "O=C1C(Br)=C(Br)C(=O)c2ccccc21", "test": "MTT", "how to read": "reference: IC50 MRC-5 over IC50 HepG2", "quantity": "selectivity index", "value": 5.14}
{"Compound": "Cc1ccc(C(C)C)cc1.Cc1ccc(C(C)C)cc1.Cc1ccc(C(C)C)cc1.Cc1ccc(C(C)C)cc1.O=S(=O)(O)C(F)(F)F.O=S(=O)(O)C(F)(F)F.O=S(=O)(O)C(F)(F)F.O=S(=O)(O)C(F)(F)F.c1ccc2c3c4ccccc4c(c2c1)-c1cn(nn1)-c1cc[n+](cc1)[Ru-]1[O]c2c4ccccc4c4c5c(c6ccccc6c(c25)=[O+]1)=[O+][Ru-]([O]4)[n+]1ccc(cc1)-n1cc(nn1)-c1c2ccccc2c(c2ccccc12)-c1cn(nn1)-c1cc[n+](cc1)[Ru-]1[O]c2c4ccccc4c4c5c(c6ccccc6c(c25)=[O+]1)=[O+][Ru-]([O]4)[n+]1ccc(cc1)-n1cc-3nn1", "test": "cell growth, MTT", "setting": "24 h, 20 µM preincubated in medium 0 h at 37 °C", "quantity": "IC50", "value": "3 ± 0.27 µM"}
{"note": "Some of these lines once more:"}
{"Compound": "Cc1ccnc(-c2cc(C)ccn2)c1.[Co+2].[O-]c1c(I)cc(I)c2cccnc12.[O-]c1c(I)cc(I)c2cccnc12", "test": "cell growth or viability, MTT", "setting": "48 h", "quantity": "IC50", "value": "46.3 µM"}
{"Compound": "CCOC(=O)c1ccc(NC(=O)C(C#N)=C2C(=O)c3ccccc3C2=O)cc1", "test": "cell growth or viability, MTT", "setting": "6.25 µM, 24 h", "quantity": "viability", "value": "78.6%"}
{"Compound": "C/C(=N\\N=c1/[nH]c(-c2ccccc2)cs1)c1c(O)c2ccccc2oc1=O", "test": "cell growth, MTT", "how to read": "reference: IC50 BJ-1 over HepG2", "quantity": "selectivity index", "value": "> 2.1"}
